{"data": "Measurements of several laboratories", "note": "A part holds a random share of what one study measured."}
{"data": "Set 1", "target": "Interferon regulatory factor 7, full length, phosphomimetic (IRF7, Homo sapiens, UniProt Q92985, residues 1-503, S471D/S472D/S475D/S476D/S477D/S483D/S484D/S487D)", "method": "protein-binding microarray", "molecule type": "double-stranded DNA, one strand shown", "medium": "in vitro", "concentration": "2200 nM top", "notes": "60-bp whole probe", "with": "salmon DNA 0.4 mg/ml", "reference": "random background probes", "reading": "higher = stronger binding", "sequence of UniProt Q92985 (whole entry, unmodified, looked up)": "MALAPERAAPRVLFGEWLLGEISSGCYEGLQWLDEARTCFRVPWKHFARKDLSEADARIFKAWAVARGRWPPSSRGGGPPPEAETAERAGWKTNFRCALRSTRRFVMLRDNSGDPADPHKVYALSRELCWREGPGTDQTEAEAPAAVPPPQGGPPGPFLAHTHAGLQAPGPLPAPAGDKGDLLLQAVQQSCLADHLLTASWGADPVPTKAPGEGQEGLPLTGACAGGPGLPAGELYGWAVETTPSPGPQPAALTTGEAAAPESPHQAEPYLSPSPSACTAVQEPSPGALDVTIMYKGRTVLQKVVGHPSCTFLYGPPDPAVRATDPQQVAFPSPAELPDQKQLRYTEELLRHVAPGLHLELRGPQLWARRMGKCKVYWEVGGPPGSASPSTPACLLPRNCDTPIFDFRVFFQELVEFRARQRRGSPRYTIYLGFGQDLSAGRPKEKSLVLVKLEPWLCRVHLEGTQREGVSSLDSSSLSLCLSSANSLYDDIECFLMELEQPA"}
{"Strand": "GCCTAGCACTTAGCTCTCCTTTTCCTTTAGTGCTAGGTCTTGATTCGCTTGACGCTGCTG", "fitted relative affinity [z-score]": 2.06}
{"Strand": "GCCTAGCACTTGGCTTCCTCTTTCTCTGCGTGCTAGGTCTTGATTCGCTTGACGCTGCTG", "fitted relative affinity [z-score]": 1.92}
{"Strand": "GCCTAGCACTCATTCCTGATCTCTGGTCTTGTGCTAGTCTTGATTCGCTTGACGCTGCTG", "fitted relative affinity [z-score]": 1.83}
{"Strand": "GCCTAGCACTTAGGTCTCCTTCTCCTTGAGTGCTAGGTCTTGATTCGCTTGACGCTGCTG", "fitted relative affinity [z-score]": 0.967}
{"data": "Set 2", "target": "Histone acetyltransferase KAT6A, winged helix 2, GST fusion (KAT6A, Homo sapiens, UniProt Q92794, residues 85-181)", "method": "protein binding microarray", "molecule type": "double-stranded DNA, one strand shown", "medium": "in vitro", "concentration": "not given", "notes": "8-mer, flanks averaged, mean of 2 arrays, mostly near background", "reference": "not given", "reading": "higher = stronger binding", "Residues (chain)": "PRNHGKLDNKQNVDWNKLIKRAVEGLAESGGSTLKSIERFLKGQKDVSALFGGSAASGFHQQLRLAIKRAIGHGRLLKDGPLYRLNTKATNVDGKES"}
{"Strand": "CATAAGTC", "E-score": -0.0433}
{"Strand": "AGTTCGAC", "E-score": 0.0379}
{"Strand": "ACCCCTAC", "E-score": -0.327}
{"Strand": "AATTATCT", "E-score": 0.00602}
{"data": "Other studies, line by line", "F2 mature alpha-thrombin": "Prothrombin, mature alpha-thrombin (F2, Homo sapiens, UniProt P00734)"}
{"Substance": "GGTTGGTGTGGTTGG (2'F-ANA at 6 7 8 11)", "target": "F2 mature alpha-thrombin", "test": "aptamer microarray, sandwich", "test system": "DNA with 2'F-ANA, in vitro", "setting": "200 nM, whole 15-mer aptamer, many near background, with: Cy3 exosite-II aptamer, 400 nM", "how to read": "higher = stronger binding", "measurement": "mean fluorescence intensity", "result": "545 a.u."}
{"Substance": "PhoQ, residues 284 288 289 292 302 303 SIHMAM", "target": "PhoP, residues 12 14 15 18 19 SPWRL (Escherichia coli, UniProt P23836)", "test": "Sort-seq, measured: YFP reporter", "test system": "E. coli", "setting": "PhoQ-PhoP variant library, with: 10 µM Mg2+", "how to read": "reference: high Mg2+ state, higher = stronger signaling", "measurement": "fold induction", "result": 2.41}
{"Substance": "GGTTGGTGTGGTTGG (2'F-ANA at 3 4 5 7 8 9 10 13 14 15)", "target": "F2 mature alpha-thrombin", "test": "aptamer microarray, sandwich", "test system": "DNA with 2'F-ANA, in vitro", "setting": "200 nM, whole 15-mer aptamer, many near background, with: Cy3 exosite-II aptamer, 400 nM", "how to read": "higher = stronger binding", "measurement": "mean fluorescence intensity", "result": "47.2 a.u."}
{"note": "For quick reference, copied from above (set 2):"}
{"Strand": "AGTTCGAC", "E-score": 0.0379}
